Experimental data of several laboratories.
Numbered parts are unrelated; each lists some results of a single study. Substitutions count along the parent as printed.

Sample 1
Target: CCNB2, cyclin fold, Cln2 fusion (human)
Method: yeast growth competition, sequencing
Sample: yeast
Notes: weak parent motif
Relative to: not given
Reading: higher = stronger binding
Measurement: normalised enrichment score
Starting sequence: RBL1 docking peptide (human); GSAKRRLFGEDPP; partner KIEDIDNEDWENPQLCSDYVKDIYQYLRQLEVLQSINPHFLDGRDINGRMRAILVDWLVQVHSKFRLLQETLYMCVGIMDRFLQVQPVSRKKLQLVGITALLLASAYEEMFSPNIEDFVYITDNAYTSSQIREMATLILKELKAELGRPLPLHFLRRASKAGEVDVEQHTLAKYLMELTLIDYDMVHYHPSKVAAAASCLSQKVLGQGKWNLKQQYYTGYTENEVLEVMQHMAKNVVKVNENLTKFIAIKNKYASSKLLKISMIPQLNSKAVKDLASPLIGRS
GSAKRRLFGEDPD [P13D]: -0.0763
GSAKRRLFGEDPT [P13T]: 0.0355
GSAKRRLHGEDPP [F8H]: 0.313
GSAHRRLFGEDPP [K4H]: -0.313
GSAKRRPFGEDPP [L7P]: 0.554
GQAKRRLFGEDPP [S2Q]: 0.432
GSAKRRLFGEDEP [P12E]: 0.647
GSAKRRLFGFDPP [E10F]: 0.451
GSAKRRSFGEDPP [L7S]: -0.44
GSAKRRLFGCDPP [E10C]: 0.0589
YSAKRRLFGEDPP [G1Y]: 1.31
GSAKRGLFGEDPP [R6G]: -0.131
GSAKRNLFGEDPP [R6N]: 0.555
GWAKRRLFGEDPP [S2W]: -0.225
GSAKRREFGEDPP [L7E]: -0.489
WSAKRRLFGEDPP [G1W]: 0.645
GSAKRRLFGIDPP [E10I]: 0.589
GSAKRRLFGEVPP [D11V]: 0.279
GSAKRRLFGEPPP [D11P]: 0.0702
TSAKRRLFGEDPP [G1T]: 0.833
FSAKRRLFGEDPP [G1F]: 0.909
GSAKRRLFGEWPP [D11W]: 0.658
GSAKRRFFGEDPP [L7F]: 0.111
GSAERRLFGEDPP [K4E]: -0.474
GSAKRRLGGEDPP [F8G]: 0.239

Sample 2
Target: Interferon regulatory factor 7, full length, phosphomimetic (IRF7, Homo sapiens, UniProt Q92985, residues 1-503, S101K/S471D/S472D/S475D/S476D/S477D/S483D/S484D/S487D)
Method: protein-binding microarray
Molecule type: double-stranded DNA, one strand shown
Sample: in vitro
Tested at: 250 nM
Notes: 60-bp whole probe
With: salmon DNA 0.4 mg/ml
Relative to: random background probes
Reading: higher = stronger binding
Measurement: log fluorescence
Shared flanks, not repeated: GCCTAGCAC … GTCTTGATTCGCTTGACGCTGCTG
Target sequence (chain): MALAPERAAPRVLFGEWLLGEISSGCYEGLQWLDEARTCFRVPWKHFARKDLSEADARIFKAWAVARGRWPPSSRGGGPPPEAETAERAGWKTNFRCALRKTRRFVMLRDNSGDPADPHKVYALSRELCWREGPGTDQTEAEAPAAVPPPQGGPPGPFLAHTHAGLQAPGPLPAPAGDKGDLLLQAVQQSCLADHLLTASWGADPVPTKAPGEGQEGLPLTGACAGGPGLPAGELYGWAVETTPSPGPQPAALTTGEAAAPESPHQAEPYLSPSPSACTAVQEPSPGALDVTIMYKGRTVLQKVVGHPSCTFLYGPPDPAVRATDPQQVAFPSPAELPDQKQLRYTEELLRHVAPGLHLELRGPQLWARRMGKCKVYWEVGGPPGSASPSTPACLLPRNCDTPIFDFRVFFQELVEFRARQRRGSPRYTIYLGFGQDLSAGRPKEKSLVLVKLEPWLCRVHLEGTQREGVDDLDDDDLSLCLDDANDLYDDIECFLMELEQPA
TCAGCTCTGTGCTTTCCTACTGTGCTA: -0.362 z-score
GACGGACTGCACTTTCGGGACGTGCTA: -0.138 z-score
TTAGATCTCAGTTTCGCTTAGTGCTAG: 5.88 z-score
TTTTTTTTTTTTTTTTTGGAGTGCTAG: 0.674 z-score
AAGCCATTGGTCTTCACTTGGTGCTAG: -0.763 z-score
TTAGGTATCGGGTTTCGGTGAGTGCTA: 2.61 z-score
CTCATTCTCTGTTTATGTCTGTGCTAG: 3.13 z-score
GACGCTTTCCTTTTCCTGACGTGCTAG: 2.45 z-score
GTCGGTATCGACTATCGGGACGTGCTA: 0.0381 z-score
TTAGGTTTCGGTTTAGGTTAGTGCTAG: 14.3 z-score
TTAGGACTGTGTATCGGTTAGTGCTAG: 0.218 z-score
GTAGGACTGGGACTGGGTTAGTGCTAG: -0.343 z-score
TTAGAACTGAGTCTCGATTCGTGCTAG: 4.19 z-score
TTAGGACTGGCTCTCGGTTAGTGCTAG: -0.458 z-score

Sample 3
Target: Centromere-binding protein 1, full length, N-terminal tag (CBF1, Saccharomyces cerevisiae, UniProt P17106, residues 1-351)
Chain of UniProt P17106 (whole entry, looked up): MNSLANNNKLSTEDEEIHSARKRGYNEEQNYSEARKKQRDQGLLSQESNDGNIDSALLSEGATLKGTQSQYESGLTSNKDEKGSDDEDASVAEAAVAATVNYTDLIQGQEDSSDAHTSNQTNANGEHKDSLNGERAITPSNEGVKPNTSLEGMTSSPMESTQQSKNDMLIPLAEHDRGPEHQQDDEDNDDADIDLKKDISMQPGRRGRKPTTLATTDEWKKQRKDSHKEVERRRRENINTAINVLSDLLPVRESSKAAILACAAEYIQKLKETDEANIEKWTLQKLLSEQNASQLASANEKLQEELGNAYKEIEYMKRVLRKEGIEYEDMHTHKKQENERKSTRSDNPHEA
Method: protein-binding microarray
Molecule type: double-stranded DNA, one strand shown
Sample: in vitro
Tested at: 0.8 µM
Notes: whole 60-bp probe, no competitor
Reading: higher = stronger binding
Measurement: fluorescence intensity
Shared flanks, not repeated: … GTCTTGATTCGCTTGACGCTGCTG
CTATCGGTGTAAAAGCACGTACACCGCGTTCGGTTC: 525 a.u.
GAAGCGTTTGATCATCTGACCTTTATGATTTTGTAG: 2870 a.u.
GAACCTCCGCCACATCAGGTATTGTTCCAACACTAG: 527 a.u.
CCTAACTACTATATGGGCGTGCAATAGCTTCGTACA: 507 a.u.
TGTACGAAGCTATCCAACATGATTATAGTAGTTAGG: 524 a.u.
GAAACCTCAATTGATCACATCGTCTCGCCGTACTAG: 527 a.u.
GAAACACGCTTTGGGGACATCATGTATAACAGCTAG: 510 a.u.
TGTACGAAGCTATGAGGTGTGATTATAGTAGTTAGG: 562 a.u.
GAAATACCTACGTATCTGATGTGTATACTTCTCTAG: 492 a.u.
CTAATGTCAAAAAATCTCGTGAGACCTCCGGAATTC: 621 a.u.
CTATGCCTATTGCGTCATCAGCGACTCCGCGCCTTC: 503 a.u.
GAATCGTTCAAAGAAAACATCAGAAGTGGTTGATAG: 549 a.u.
GAAAGATGGGACCATCAGATGTGGAACGAAAATTAG: 509 a.u.
GAAGAAGTCCTTACTCAGCTGAAAAAGAGAAGCTAG: 535 a.u.
CTATTGATGCTCGCCAACGTGAGATAGCTGGTCTTC: 517 a.u.
CTATTTGGCTCAGCAAACGTGCAGCACCATGATTTC: 571 a.u.
CTATTAGTAGGCCCAGGTGAGCCTGTGCCGAACTTC: 471 a.u.
GAACAATTTTATGACCGCGTGTTTTCGAATTTTTAG: 676 a.u.
CTATTCATTCCGTGGTGCGTGATCTGATGAGAATTC: 1190 a.u.
CTACATCATGGTACTACCGTGACGGAGAATACGTTC: 660 a.u.

Sample 4
Target: ABI1, truncated, D143A, DHFR fusion (Arabidopsis thaliana)
Method: DHFR PCA, deep sequencing
Sample: yeast
Notes: methotrexate growth selection, single substitutions
With: (+)-ABA 58 µM
Relative to: wild-type fitted maximum
Reading: higher = stronger binding
Measurement: relative binding score
Starting sequence: PYL1, truncated, DHFR fusion (Arabidopsis thaliana); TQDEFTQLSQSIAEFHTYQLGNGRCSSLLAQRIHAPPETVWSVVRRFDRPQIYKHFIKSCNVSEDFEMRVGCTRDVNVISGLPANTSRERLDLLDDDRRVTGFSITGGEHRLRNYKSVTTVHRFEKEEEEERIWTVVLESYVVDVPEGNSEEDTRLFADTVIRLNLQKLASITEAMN
D96E: 90.8%
R45N: 22.2%
D95V: 19.3%
I162S: 6.58%
V70D: 41.1%
S59G: 78.3%
L93I: 104%
G148C: 58.1%
P83Y: 6.58%
S117I: -1.55%
K126Q: 96.6%
V137I: 69.1%
C25D: -3.7%

Sample 5
Target: CRIPT, C-terminal peptide
Method: DHFR complementation, deep sequencing
Sample: yeast
Notes: single substitutions, model-inferred values
Relative to: wild type
Reading: higher = weaker binding
Measurement: binding free energy change
Starting sequence: ERBIN, PDZ domain 1 (human); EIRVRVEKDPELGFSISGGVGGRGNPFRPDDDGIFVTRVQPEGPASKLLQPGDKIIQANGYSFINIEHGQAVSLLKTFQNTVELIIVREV; partner TKNYKQTSV
E7S: 0.0991 kcal/mol
Q79C: 0.0313 kcal/mol
G24D: 1 kcal/mol
I16T: 1.4 kcal/mol
S62Q: 0.0553 kcal/mol
L49H: 1.35 kcal/mol
P10Q: -0.654 kcal/mol
P51A: 0.11 kcal/mol
V36Y: 0.86 kcal/mol
S73P: 1.21 kcal/mol
E1W: 0.121 kcal/mol
S46V: 0.105 kcal/mol
T77Y: 0.179 kcal/mol
G60A: 0.117 kcal/mol

Sample 6
Target: Sal-like protein 4, full length isoform A (SALL4, Homo sapiens, UniProt Q9UJQ4, residues 1-1053)
Chain of UniProt Q9UJQ4 (whole entry, looked up): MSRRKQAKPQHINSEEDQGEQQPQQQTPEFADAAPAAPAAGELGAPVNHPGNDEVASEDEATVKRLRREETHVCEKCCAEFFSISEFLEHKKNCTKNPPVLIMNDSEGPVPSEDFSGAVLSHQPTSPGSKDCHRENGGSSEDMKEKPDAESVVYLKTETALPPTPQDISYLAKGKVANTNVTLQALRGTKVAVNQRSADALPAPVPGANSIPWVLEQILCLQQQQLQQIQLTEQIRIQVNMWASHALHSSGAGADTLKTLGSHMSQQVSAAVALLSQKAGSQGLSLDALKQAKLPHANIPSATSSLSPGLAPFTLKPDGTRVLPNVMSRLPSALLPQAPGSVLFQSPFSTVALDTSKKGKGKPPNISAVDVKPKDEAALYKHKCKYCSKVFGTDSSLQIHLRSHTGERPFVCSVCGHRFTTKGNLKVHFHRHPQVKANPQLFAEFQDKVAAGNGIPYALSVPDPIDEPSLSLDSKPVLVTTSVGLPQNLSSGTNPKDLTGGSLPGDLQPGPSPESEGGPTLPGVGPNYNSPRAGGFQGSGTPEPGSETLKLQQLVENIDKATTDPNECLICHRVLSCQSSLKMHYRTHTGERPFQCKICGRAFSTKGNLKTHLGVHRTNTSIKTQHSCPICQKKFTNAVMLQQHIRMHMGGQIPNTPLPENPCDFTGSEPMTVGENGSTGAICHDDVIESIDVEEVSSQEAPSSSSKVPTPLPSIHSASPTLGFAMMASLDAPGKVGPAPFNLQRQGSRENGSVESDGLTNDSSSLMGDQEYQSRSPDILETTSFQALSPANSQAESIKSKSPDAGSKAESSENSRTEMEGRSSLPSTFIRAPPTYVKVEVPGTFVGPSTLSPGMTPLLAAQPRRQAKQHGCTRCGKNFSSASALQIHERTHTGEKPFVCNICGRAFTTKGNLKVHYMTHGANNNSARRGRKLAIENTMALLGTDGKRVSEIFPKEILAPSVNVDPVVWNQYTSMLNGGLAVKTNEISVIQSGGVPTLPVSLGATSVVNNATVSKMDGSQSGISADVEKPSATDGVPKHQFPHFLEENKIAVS
Method: universal PBM
Molecule type: double-stranded DNA, one strand shown
Sample: in vitro
Tested at: 600 nM
Notes: 8-mer, flanks averaged, mean of replicates
Reading: higher = stronger binding
Measurement: E-score
GCCGGCGA: -0.355
ATTCTGTC: -0.0212
TATCGCAA: 0.151
AAACAAAT: 0.329
AATTTCTC: 0.159
ATAATGAT: 0.352
GTAGAAGA: -0.0893
CTTAATGC: 0.107
CTAACCAG: -0.113
GGGCTCCA: -0.297
CGCGACAC: -0.189
ACAACCTA: -0.0382
CTCTGCCA: -0.081
CCGGTTCC: -0.379
CTAGACAC: 0.00115
CTTGAATC: 0.0909
GACACATC: -0.0337
GTCCTGTA: 0.00165
CTGGCAAG: -0.079
TTAGGAAA: 0.242
CATTTGAG: 0.176

Further values, each from its own experiment
PhoQ, residues 284 288 289 292 302 303 SMMNNA — fold induction (PhoP, residues 12 14 15 18 19 LHSVW (Escherichia coli, UniProt P23836); Sort-seq, item: YFP reporter; E. coli; PhoQ-PhoP variant library, with: 10 µM Mg2+; relative to: high Mg2+ state, higher = stronger signaling): 3.95
